Assay results pooled from the literature.
Every numbered part comes from another study and shows a few of its results, in no order. Substitutions count along the parent as printed.

Series 1
Target: Sal-like protein 4, full length isoform B (SALL4, Homo sapiens, UniProt Q9UJQ4-2, residues 1-616)
Technique: universal PBM
Form: double-stranded DNA, one strand shown
Sample: in vitro
Tested at: not given
Setting: 8-mer, flanks averaged, mean of replicates
Direction: higher = stronger binding
Measurement: E-score
Construct (chain): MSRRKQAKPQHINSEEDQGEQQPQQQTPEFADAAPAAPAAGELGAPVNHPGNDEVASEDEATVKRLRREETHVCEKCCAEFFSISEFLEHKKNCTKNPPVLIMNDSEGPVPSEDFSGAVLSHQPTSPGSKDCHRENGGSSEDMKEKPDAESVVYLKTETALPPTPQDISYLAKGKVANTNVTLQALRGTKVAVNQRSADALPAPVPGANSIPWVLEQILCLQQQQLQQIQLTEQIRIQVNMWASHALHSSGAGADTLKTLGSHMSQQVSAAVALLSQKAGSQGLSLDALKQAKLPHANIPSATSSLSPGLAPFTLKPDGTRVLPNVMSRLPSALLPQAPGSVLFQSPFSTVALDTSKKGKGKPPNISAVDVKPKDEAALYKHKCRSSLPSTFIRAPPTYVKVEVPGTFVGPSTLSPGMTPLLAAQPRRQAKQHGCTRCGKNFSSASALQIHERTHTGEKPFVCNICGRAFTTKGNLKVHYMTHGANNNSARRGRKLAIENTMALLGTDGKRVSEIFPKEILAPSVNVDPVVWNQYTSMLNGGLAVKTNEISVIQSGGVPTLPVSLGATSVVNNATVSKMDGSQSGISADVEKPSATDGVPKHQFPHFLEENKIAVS
GTGATCGA: 0.0122
ACCCCCCA: -0.162
CTACCTTC: 0.133

Series 2
Target: Interferon regulatory factor 5, full length, phosphomimetic (IRF5, Homo sapiens, UniProt Q13568-2, residues 1-514, K96S/S451D/S453D/S456D/S462D)
Technique: protein-binding microarray
Form: double-stranded DNA, one strand shown
Sample: in vitro
Tested at: 250 nM
Setting: 60-bp whole probe
Together with: salmon DNA 0.4 mg/ml
Relative to: random background probes
Direction: higher = stronger binding
Measurement: log fluorescence
GCCTAGCACTCAGAAATCAGTATGTTACTGTGCTAGGTCTTGATTCGCTTGACGCTGCTG: 0.299 z-score
GCCTAGCACTTAGATTTCCGTTTCGATTAGTGCTAGGTCTTGATTCGCTTGACGCTGCTG: 8.97 z-score
GCCTAGCACTTAGGTATCGGTATCAGTTAGTGCTAGGTCTTGATTCGCTTGACGCTGCTG: 7.87 z-score

Series 3
Target: CCND1, cyclin fold, Cln2 fusion (human)
Technique: yeast growth competition, sequencing
Sample: yeast
Setting: strong parent motif
Relative to: not given
Direction: higher = stronger binding
Measurement: normalised enrichment score
Parent: E2F2 docking peptide (human); LPAKRKLDLEGIG; partner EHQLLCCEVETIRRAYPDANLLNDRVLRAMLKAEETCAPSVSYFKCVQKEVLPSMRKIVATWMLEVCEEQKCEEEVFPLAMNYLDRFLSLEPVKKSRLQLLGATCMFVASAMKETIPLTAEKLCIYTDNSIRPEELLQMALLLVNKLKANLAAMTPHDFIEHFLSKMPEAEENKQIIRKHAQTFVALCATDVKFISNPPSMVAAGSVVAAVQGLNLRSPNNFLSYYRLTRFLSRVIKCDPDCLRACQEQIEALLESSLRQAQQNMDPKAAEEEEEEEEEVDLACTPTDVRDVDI
LPAKRKLDAEGIG [L9A]: -0.25
LPAKKKLDLEGIG [R5K]: -0.0928
LPAKRKLDLEAIG [G11A]: 0.235

Single results of other studies
PhoQ, residues 284 288 289 292 302 303 DDMDFR — fold induction (PhoP, residues 12 14 15 18 19 FWNTL (Escherichia coli, UniProt P23836); Sort-seq, refers to: YFP reporter; E. coli; PhoQ-PhoP variant library, together with: 10 µM Mg2+; relative to: high Mg2+ state, higher = stronger signaling): 0.821
